{"data": "Assay results pooled from the literature", "CSNK1D": "Casein kinase I isoform delta (CSNK1D, Homo sapiens, UniProt P48730)", "IDE": "Insulin-degrading enzyme (IDE, Homo sapiens, UniProt P14735)", "PSMB5": "Proteasome Macropain subunit MB1 (PSMB5, Homo sapiens, UniProt P28074)", "note": "Each line is one published result; not all experiments were run side by side. Numbers after ± are the reported error.", "UniProt P28074, sequence (whole entry, looked up)": "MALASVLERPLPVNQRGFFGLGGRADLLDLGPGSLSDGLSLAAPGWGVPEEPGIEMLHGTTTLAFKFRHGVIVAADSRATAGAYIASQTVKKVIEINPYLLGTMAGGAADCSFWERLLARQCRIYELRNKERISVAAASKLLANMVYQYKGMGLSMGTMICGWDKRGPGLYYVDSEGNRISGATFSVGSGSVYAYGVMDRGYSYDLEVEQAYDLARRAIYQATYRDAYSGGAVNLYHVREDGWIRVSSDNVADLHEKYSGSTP", "UniProt P48730, sequence (whole entry, looked up)": "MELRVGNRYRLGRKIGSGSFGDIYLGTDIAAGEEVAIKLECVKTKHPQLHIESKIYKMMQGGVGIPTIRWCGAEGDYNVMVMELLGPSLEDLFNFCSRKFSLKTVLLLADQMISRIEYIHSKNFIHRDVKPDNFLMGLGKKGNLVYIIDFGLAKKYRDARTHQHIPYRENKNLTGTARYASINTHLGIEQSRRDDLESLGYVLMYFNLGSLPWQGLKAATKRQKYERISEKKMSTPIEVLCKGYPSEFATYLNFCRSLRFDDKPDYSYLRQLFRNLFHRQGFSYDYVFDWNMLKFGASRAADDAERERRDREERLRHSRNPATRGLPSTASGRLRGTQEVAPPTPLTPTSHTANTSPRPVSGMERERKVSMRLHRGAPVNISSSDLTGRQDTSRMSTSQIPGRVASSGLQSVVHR", "UniProt P10275, sequence (whole entry, unmodified, looked up)": "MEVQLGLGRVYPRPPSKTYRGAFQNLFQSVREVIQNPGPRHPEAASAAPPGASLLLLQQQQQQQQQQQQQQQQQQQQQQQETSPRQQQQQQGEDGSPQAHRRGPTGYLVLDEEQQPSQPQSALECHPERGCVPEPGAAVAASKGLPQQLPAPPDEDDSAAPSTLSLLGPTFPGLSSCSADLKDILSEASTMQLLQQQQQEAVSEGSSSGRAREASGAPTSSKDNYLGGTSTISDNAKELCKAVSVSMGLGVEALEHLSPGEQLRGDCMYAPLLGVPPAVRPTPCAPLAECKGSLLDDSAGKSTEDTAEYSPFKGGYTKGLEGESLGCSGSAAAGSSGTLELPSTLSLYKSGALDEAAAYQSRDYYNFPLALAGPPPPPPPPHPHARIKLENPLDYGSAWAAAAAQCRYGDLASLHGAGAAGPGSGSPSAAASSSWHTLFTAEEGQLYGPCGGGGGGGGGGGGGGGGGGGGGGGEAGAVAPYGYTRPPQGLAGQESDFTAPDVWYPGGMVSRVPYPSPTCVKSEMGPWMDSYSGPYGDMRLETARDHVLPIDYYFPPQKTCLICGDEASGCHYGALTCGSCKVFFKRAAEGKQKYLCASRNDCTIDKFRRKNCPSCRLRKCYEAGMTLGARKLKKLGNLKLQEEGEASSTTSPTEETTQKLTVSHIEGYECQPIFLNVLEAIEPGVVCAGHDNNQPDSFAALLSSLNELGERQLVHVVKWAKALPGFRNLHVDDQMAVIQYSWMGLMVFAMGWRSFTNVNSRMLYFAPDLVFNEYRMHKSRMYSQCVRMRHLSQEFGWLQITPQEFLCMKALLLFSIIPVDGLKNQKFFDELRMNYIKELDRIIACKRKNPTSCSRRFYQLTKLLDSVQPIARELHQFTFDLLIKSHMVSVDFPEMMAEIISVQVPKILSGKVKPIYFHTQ", "UniProt P42568, sequence (whole entry, looked up)": "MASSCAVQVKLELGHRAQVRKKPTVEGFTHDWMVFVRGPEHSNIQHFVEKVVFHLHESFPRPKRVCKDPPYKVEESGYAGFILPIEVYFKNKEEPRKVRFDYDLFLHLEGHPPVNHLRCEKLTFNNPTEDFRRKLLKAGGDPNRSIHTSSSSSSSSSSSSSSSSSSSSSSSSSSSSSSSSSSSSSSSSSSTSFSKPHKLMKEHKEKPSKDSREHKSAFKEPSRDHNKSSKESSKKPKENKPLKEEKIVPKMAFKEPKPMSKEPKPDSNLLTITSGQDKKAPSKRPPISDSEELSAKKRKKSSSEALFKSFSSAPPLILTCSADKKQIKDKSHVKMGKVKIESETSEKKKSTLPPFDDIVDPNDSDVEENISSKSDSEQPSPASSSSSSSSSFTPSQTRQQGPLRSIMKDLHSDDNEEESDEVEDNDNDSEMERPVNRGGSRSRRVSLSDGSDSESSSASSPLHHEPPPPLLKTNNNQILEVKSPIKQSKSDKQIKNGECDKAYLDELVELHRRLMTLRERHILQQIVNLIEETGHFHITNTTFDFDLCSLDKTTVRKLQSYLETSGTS", "UniProt P05181, sequence (whole entry, looked up)": "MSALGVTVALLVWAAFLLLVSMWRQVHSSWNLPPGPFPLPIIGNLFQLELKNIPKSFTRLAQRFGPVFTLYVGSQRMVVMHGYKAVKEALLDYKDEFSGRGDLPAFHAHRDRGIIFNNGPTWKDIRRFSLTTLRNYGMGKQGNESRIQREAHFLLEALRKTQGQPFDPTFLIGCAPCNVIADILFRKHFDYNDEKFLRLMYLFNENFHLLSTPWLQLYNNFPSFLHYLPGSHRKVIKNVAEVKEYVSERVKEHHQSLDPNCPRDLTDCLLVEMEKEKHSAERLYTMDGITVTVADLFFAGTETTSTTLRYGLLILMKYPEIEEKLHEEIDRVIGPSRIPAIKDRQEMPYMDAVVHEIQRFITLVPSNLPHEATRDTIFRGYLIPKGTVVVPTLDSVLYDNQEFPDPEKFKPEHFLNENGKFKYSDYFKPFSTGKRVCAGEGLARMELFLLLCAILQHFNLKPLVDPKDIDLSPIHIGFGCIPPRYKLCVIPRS", "UniProt P04062, sequence (whole entry, unmodified, looked up)": "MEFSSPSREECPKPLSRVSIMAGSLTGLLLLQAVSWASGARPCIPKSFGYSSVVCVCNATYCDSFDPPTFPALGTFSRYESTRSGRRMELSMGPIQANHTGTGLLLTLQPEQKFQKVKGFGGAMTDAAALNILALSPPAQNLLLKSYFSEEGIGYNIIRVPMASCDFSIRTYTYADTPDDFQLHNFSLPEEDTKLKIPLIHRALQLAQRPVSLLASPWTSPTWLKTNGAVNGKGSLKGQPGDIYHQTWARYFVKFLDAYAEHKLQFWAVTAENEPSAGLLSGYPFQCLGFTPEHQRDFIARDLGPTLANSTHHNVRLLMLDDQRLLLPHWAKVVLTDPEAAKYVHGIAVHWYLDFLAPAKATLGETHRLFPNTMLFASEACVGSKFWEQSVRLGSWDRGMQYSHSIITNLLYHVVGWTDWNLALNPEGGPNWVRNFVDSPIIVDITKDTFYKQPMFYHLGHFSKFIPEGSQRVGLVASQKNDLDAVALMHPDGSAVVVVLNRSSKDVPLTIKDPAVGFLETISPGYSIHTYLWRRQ", "UniProt P00383, sequence (whole entry, looked up)": "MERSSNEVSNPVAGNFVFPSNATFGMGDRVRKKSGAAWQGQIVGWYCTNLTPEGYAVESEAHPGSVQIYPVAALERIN", "UniProt P20618, sequence (whole entry, looked up)": "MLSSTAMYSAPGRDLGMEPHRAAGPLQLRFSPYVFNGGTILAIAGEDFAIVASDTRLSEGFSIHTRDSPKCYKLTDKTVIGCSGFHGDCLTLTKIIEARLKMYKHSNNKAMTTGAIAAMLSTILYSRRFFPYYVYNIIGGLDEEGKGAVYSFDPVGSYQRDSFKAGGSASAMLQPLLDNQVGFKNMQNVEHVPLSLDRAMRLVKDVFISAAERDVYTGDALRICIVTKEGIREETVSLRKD", "UniProt P14555, sequence (whole entry, looked up)": "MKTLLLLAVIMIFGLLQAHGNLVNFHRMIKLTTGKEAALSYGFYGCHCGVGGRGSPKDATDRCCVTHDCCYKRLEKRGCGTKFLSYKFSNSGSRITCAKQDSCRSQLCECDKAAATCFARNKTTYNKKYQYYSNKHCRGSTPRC", "UniProt P35368, sequence (whole entry, looked up)": "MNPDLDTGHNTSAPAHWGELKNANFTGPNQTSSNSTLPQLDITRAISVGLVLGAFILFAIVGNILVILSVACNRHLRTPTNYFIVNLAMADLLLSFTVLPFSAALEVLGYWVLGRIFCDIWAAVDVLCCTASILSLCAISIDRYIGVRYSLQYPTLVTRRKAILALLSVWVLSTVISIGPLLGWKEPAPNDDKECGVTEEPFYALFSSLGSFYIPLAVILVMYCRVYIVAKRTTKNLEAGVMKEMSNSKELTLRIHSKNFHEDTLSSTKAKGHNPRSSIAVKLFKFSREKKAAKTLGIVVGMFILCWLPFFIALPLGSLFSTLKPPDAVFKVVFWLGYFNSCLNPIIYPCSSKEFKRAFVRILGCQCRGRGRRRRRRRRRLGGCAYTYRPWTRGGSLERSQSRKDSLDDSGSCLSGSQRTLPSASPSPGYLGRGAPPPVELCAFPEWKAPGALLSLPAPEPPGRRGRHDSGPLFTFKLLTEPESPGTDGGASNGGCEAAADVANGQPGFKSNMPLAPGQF", "UniProt Q64663, sequence (whole entry, unmodified, looked up)": "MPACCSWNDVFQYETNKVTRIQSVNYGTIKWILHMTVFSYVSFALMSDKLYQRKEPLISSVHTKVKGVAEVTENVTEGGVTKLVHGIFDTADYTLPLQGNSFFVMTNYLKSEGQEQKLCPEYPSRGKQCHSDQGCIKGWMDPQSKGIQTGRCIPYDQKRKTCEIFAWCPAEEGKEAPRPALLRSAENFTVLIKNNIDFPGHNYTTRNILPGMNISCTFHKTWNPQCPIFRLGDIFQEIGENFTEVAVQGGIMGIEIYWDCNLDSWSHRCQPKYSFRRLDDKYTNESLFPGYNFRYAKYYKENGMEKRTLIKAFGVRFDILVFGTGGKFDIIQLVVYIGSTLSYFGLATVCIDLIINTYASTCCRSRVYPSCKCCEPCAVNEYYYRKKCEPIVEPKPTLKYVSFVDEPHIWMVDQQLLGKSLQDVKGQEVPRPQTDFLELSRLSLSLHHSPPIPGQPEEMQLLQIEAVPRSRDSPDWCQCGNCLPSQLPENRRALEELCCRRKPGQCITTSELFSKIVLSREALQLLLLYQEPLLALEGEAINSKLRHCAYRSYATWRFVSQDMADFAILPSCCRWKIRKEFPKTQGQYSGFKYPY"}
{"Structure (SMILES)": "Fc1ccc(-c2nc[nH]c2-c2ccncc2)cc1", "target": "CSNK1D", "assay": "inhibitor", "measurement": "IC50", "value": "0.0333 ± 0.0084 µM"}
{"Structure (SMILES)": "CCCn1nccc1S(=O)(=O)N1C/C=C\\CN2[C@H](CO)[C@@H](c3ccc(-c4cccc(C)c4C)cc3)[C@@H]2C1", "target": "IDE", "assay": "enzyme activity, inhibitor, fluorescence kinetic", "conditions": "with: Mca-RPPGFSAFK(Dnp)-OH substrate", "measurement": "EC50", "value": "0.018 µM"}
{"Structure (SMILES)": "CC(=O)C(=O)N(CC(C)C)NC(=O)[C@H](Cc1ccccc1)NC(=O)[C@H](CC(C)C)NC(=O)[C@H](CCc1ccccc1)NC(=O)OCc1ccccc1", "target": "Proteasome component C5/PSMB5 (Homo sapiens, UniProt P20618+P28074)", "assay": "β5 chymotrypsin-like activity, inhibitor", "conditions": "with: Suc-LLVY-AMC 100 µM", "measurement": "IC50", "value": "5.4 ± 1 µM"}
{"Structure (SMILES)": "Cc1ccc(-c2cc(C(F)(F)F)nn2-c2ccc(S(N)(=O)=O)cc2)cc1", "target": "Androgen receptor (AR, Homo sapiens, UniProt P10275)", "system": "human cells", "measurement": "IC50", "value": "8.2 µM"}
{"Structure (SMILES)": "CCn1c(-c2nc3ccc(C(=O)N4CCCC(N)C4)cc3n2C)cc2ccccc21 (centres unmarked)", "target": "ADRA1B (Homo sapiens, UniProt P35368)", "assay": "intracellular calcium, antagonist, luminescence", "measurement": "IC50", "value": "3.98 µM"}
{"Structure (SMILES)": "Cc1nc2ccc(Cl)cc2c(=O)n1NC1=NC(=O)CS1", "target": "Phospholipase A2, membrane associated (Homo sapiens, UniProt P14555)", "assay": "enzyme activity, inhibitor, colorimetric", "measurement": "IC50", "value": "57.01 ± 0.57 µM"}
{"Structure (SMILES)": "c1ccc(Oc2ccc(Nc3ccc4ncc(OCC5CCNCC5)nc4c3)cc2)cc1", "target": "Protein AF-9, with AF4 (Homo sapiens, UniProt P42568)", "assay": "AlphaScreen", "measurement": "IC50", "value": "1.5 ± 0.31 µM"}
{"Structure (SMILES)": "O[C@@H]1[C@@H](O)[C@@H]2O[C@@H]2[C@H](Cn2cc(CCCOCc3ccc(-c4ccccc4)cc3)nn2)[C@H]1O", "target": "GBA1 (Homo sapiens, UniProt P04062, R534H)", "measurement": "IC50", "value": "0.001 µM"}
{"Structure (SMILES)": "CCOCC(=O)N1CCC[C@H](C(=O)NCc2nc(-c3ccc(C#N)cc3)cs2)C1", "target": "uncharacterized protein (Plasmodium falciparum, UniProt A0A5K1K7U1+Q8I261+Q8IJT1)", "assay": "Suc-LLVY-AMC", "measurement": "IC50", "value": "0.02 ± 0.0083 µM"}
{"Structure (SMILES)": "CCc1oc2ccccc2c1C(=O)c1cc(I)c(O)c(I)c1", "target": "Cytochrome P450 2E1 (CYP2E1, Homo sapiens, UniProt P05181)", "assay": "p-nitrophenol hydroxylation, inhibitor", "system": "baculosomes", "conditions": "10 min, with additive 1 µM", "measurement": "IC50", "value": "2.5 µM"}
{"Structure (SMILES)": "Fc1ccc(-c2c(-c3ccncc3)ncn2-c2ccc3ccccc3c2)cc1", "target": "CSNK1D", "assay": "inhibitor", "measurement": "IC50", "value": "> 5 µM"}
{"Structure (SMILES)": "COc1ccnc(CNC(=O)c2cnn(Cc3ccc(Cn4ccccc4=O)cc3)c2)c1F", "target": "Prothrombin (F2, Homo sapiens, UniProt P00734)", "measurement": "IC50", "value": "> 40 µM"}
{"Structure (SMILES)": "O=C(C1CCOCC1)N1CC(=O)N2[C@H](CO)[C@H](c3ccc(C#Cc4cccc(F)c4)cc3)[C@H]2C1", "target": "IDE", "assay": "enzyme activity, inhibitor, fluorogenic kinetic", "conditions": "with: Mca-RPPGFSAFK(Dnp)-OH substrate", "measurement": "EC50", "value": "5.3 µM"}
{"Structure (SMILES)": "COC(=O)c1ccc2nc(-c3ccc(OCCCOc4ccc(-c5nc6ccc(C(=O)OC)cc6[nH]5)cc4Br)c(Br)c3)[nH]c2c1", "target": "Dihydrofolate reductase type 2 (Escherichia coli, UniProt P00383)", "assay": "enzyme activity", "conditions": "pH 7", "measurement": "IC50", "value": "> 30 µM"}
{"Structure (SMILES)": "CC1CC(C)CN(c2ccc(C=NNc3nc(-c4ccc([N+](=O)[O-])cc4)cs3)cc2)C1 (centres unmarked)", "target": "alpha-glucosidase", "assay": "enzyme activity, inhibitor", "conditions": "with: p-nitrophenyl-alpha-D-glucopyranoside", "measurement": "IC50", "value": "17.2 µM"}
{"Structure (SMILES)": "CN(C)c1ccc(Nc2ccc3ncc(OCC4CCNCC4)nc3c2)cc1", "target": "Protein AF-9, with DOT1L (Homo sapiens, UniProt P42568)", "assay": "DOT1L binding, AlphaLISA", "measurement": "IC50", "value": "2.1 µM"}
{"Structure (SMILES)": "COc1ccc(C[C@H](NC(=O)[C@H](C)NC(=O)CN2CCOCC2)C(=O)N[C@@H](CC2CCC(F)(F)CC2)C(=O)[C@@]2(C)CO2)cc1", "target": "PSMB5", "assay": "competitive ABPP", "system": "Raji cell lysate", "measurement": "IC50", "value": "> 10 µM"}
{"Structure (SMILES)": "O=C(Nc1ccn(Cc2ccc(O)cc2C(F)(F)F)n1)c1c(F)cccc1F", "target": "P2X purinoceptor 7 (P2rx7, Rattus norvegicus, UniProt Q64663)", "assay": "antagonist", "measurement": "IC50", "value": "> 10 µM"}
{"Structure (SMILES)": "COC[C@H](NC(=O)[C@H](CC(C)C)NC(=O)[C@H](Cc1ccccc1)N=[N+]=[N-])C(=O)N[C@H](/C=C/S(C)(=O)=O)Cc1ccc(CN)cc1", "target": "PSMB5", "assay": "competitive ABPP", "system": "Raji cell lysate", "measurement": "IC50", "value": "> 10 µM"}
{"Structure (SMILES)": "O=C1NC(=O)c2cc(Nc3ccccc3)c(Nc3ccccc3)cc21", "target": "Androgen receptor (AR, Homo sapiens, UniProt P10275, Q868H)", "assay": "antagonist", "measurement": "IC50", "value": "17.5 ± 2.23 µM"}
